Experimental data collected from several papers.
± marks the error that the study gave.
rep main protease: Replicase polyprotein 1ab, main protease (rep, Severe acute respiratory syndrome coronavirus 2, UniProt P0DTD1)
Spike glycoprotein: Spike glycoprotein (Severe acute respiratory syndrome coronavirus 2, UniProt P0DTC2)

SMILES = CCCCCCCCOc1ccccc1C(=O)Nc1ccc(C(=O)OCC[N+](C)(CC)CC)cc1; target or system = Replicase polyprotein 1ab, nsp14 N7-methyltransferase (rep, Severe acute respiratory syndrome coronavirus 2, UniProt P0DTD1); test = N7-methyltransferase activity, inhibitor, Py-FLINT; quantity = Hill slope; result = 2.63 ± 1.4
SMILES = CC[C@H](C)[C@H](NC(=O)[C@H](CC(C)C)NC(=O)[C@H](Cc1c[nH]c2ccccc12)NC(=O)[C@H](CCC(N)=O)NC(=O)[C@@H](NC(=O)[C@H](Cc1ccccc1)NC(=O)[C@H](C)NC(=O)[C@H](CCCCNC(=O)COCCOCCNC(=O)COCCOCCNC(=O)CC[C@H](NC(=O)CCCCCCCCCCCCCCCCCCC(=O)O)C(=O)O)NC(=O)[C@H](CCC(N)=O)NC(=O)[C@H](C)NC(=O)[C@@H](NC(=O)[C@H](CCCCN)NC(=O)[C@H](CC(=O)O)NC(=O)[C@H](CC(C)C)NC(=O)C(C)(C)NC(=O)[C@@H](NC(=O)[C@H](CO)NC(=O)[C@H](Cc1ccc(O)cc1)NC(=O)[C@H](CC(=O)O)NC(=O)[C@H](CO)NC(=O)[C@@H](NC(=O)[C@H](Cc1ccccc1)NC(=O)[C@@H](NC(=O)CNC(=O)[C@H](CCC(=O)O)NC(=O)C(C)(C)NC(=O)[C@@H](N)Cc1ccc(O)cc1)[C@@H](C)O)[C@@H](C)O)[C@@H](C)CC)[C@@H](C)CC)C(C)C)C(=O)N[C@@H](C)C(=O)NCC(=O)NCC(=O)N1CCC[C@H]1C(=O)N[C@@H](CO)C(=O)N[C@@H](CO)C(=O)NCC(=O)N[C@@H](C)C(=O)N1CCC[C@H]1C(=O)N1CCC[C@H]1C(=O)N1CCC[C@H]1C(=O)N[C@@H](CO)C(N)=O; system = healthy subjects; conditions = 4.5 mg, day 29, multiple ascending dose, LS mean; how to read = relative to: baseline; quantity = systolic blood pressure change; result = 1.72 mmHg
SMILES = Cc1ccc(C(C)(C)C(=O)NC[C@H](NC(=O)c2cccnc2)c2ccc3ccccc3c2)cc1; target or system = rep main protease; test = enzyme activity, inhibitor; conditions = 5 µM, run 2; quantity = inhibition; result = 11%
SMILES = O=c1cc(-c2ccc(O)c(O)c2)oc2cc(O)cc(O)c12; target or system = Spike glycoprotein; test = binding, BLI; quantity = kon; result = 175 M⁻¹ s⁻¹
SMILES = Nc1cc(OCCCNC(=O)c2ccc(S(=O)(=O)F)cc2)ccn1; target or system = Calmodulin-sensitive adenylate cyclase (cya, Bacillus anthracis, UniProt P40136); quantity = kinact; result = 0.000717 s⁻¹
SMILES = CC1=C(/C=C/C(C)=C/C=C/C(C)=C/C=C/C=C(C)/C=C/C=C(C)/C=C/C2=C(C)CCCC2(C)C)C(C)(C)CCC1; target or system = Spike glycoprotein; test = binding, BLI; quantity = kon; result = 342 M⁻¹ s⁻¹
SMILES = CC(C)[C@H](NC(=O)c1ccc2ccccc2n1)C(=O)N[C@@H](CC(=O)O)C(=O)COc1c(F)cccc1F; target or system = rep main protease; test = reporter gene (Gaussia luciferase), inhibitor; conditions = 20 µM; quantity = inhibition; result = 1.14%
SMILES = COc1ccc(Nc2cc(C(=O)NCCCN3CCN(c4ccccc4F)CC3)c3ccccc3n2)c(OC)c1; target or system = SARS-CoV-2; test = cytopathic effect; system = USA_WA1/2020; conditions = round 2, 5-point; quantity = efficacy; result = 40.4%
SMILES = CCCN1CCN(c2ccc(C(=O)NC3(C(=O)NCC#N)CCCCC3)cc2)CC1; target or system = rep main protease; test = reporter gene (Gaussia luciferase), inhibitor; conditions = 20 µM; quantity = inhibition; result = 2.26%
SMILES = CCc1c(C(=O)C(N)=O)c2c(OCC(=O)O)cccc2n1Cc1ccccc1; target or system = Daboia russelii venom phospholipase A2; test = enzyme activity, inhibitor; system = MP population; conditions = 0.001 µM, together with: NOB substrate; how to read = relative to: venom alone; quantity = remaining activity; result = 100%
SMILES = O=C(O)c1cccc(C(=O)O)n1; target or system = dihydrodipicolinate synthase (Bacillus anthracis, UniProt A0A6L7H340); test = uncompetitive inhibitor; conditions = together with: pyruvate; quantity = Ki; result = 16 mM
SMILES = COc1ccccc1-c1cccc(CN2CCCC(C(=O)NCCc3ccc(F)cc3)C2)c1 (stereo not shown); target or system = SARS-CoV-2; test = cytopathic effect; system = USA_WA1/2020; conditions = round 1, 5-point; quantity = maximum response; result = 70.3%
SMILES = Nc1ncnc2c([C@@H]3N[C@H](CO)[C@@H](O)[C@H]3O)c[nH]c12; target or system = Yellow fever virus; test = viral replication; system = Vero 76, 17D; conditions = 9.5 µM; quantity = inhibition; result = 50%
SMILES = O=C1NC(=O)C2(CC(C(=O)NC[C@@H]3CC4(CCC4)CN3C(=O)c3ccn4ccnc4c3)C2)N1 (stereo partly shown); target or system = rep main protease; test = enzyme activity, inhibitor; conditions = 5 µM, run 1; quantity = inhibition; result = 11.6%
SMILES = CNC(=O)[C@H](Cc1ccccc1)NC(=O)[C@H](CC(C)C)[C@H](CSc1cccs1)C(=O)NO; target or system = rep main protease; test = reporter gene (Gaussia luciferase), inhibitor; conditions = 20 µM; quantity = inhibition; result = -0.514%
SMILES = O=C(N[C@@H]1CC[C@H]2C[C@@H]1CN2C(=O)c1ccc(-c2ccccc2)[nH]1)c1cc(O)cc(=O)[nH]1; target or system = rep main protease; test = enzyme activity, inhibitor; conditions = 5 µM, run 2; quantity = inhibition; result = 42.2%
SMILES = CCOC(=O)c1cc2cc(-c3cc(C(=O)NCc4ccc(C(=O)O)cc4)nn3C)ccc2[nH]1; target or system = rep main protease; test = reporter gene (Gaussia luciferase), inhibitor; system = HEK293T; conditions = 20 µM; quantity = inhibition; result = 3.06%
SMILES = Cn1cnc(Cn2c(=O)[nH]/c(=N\c3cc4cn(C)nc4cc3Cl)n(Cc3cc(F)c(F)cc3F)c2=O)n1; system = human, moderate renal impairment, plasma; conditions = oral, 375 mg single dose; quantity = renal clearance; result = 0.677 mL/min
SMILES = Cc1ccncc1C(=O)N[C@@H](CNC(=O)C1=NOCC1)c1ccc2ccccc2c1; target or system = rep main protease; test = enzyme activity, inhibitor; conditions = 5 µM, mean of runs; quantity = inhibition; result = 11.9%
